Published values gathered from unrelated publications.
Parts stem from different laboratories: compare values within a part only. Changes are numbered by the printed parent chain.

Sample 1
Target: UBE2C UBC core domain (UniProt O00762)
Method: yeast two-hybrid
Medium: yeast
Setting: mostly zero background
Reference: not given
Reading: higher = stronger interaction
B1: RFPL2 RING domain (UniProt O75678); chain MAALFQEASSCPVCSDYLEKPMSLECGCAVCLKCINSLQKEPHGEDLLCCCSSMVSRKNKIRR
B2: TRIM55 RING domain (UniProt Q9BYV6); chain TMDNLEKQLICPICLEMFTKPVVILPCQHNLCRKCASDIFQASNPYLPTRGGTTMASGGRFRCPSCRHEVVLDRHG
B3: ANKIB1 RING domain (UniProt Q9P2G1); chain LSPGDLDTSLCDICMCSISVFEDPVDMPCGHDFCRGCWESFLNLKIQEGEAHNIFCPAYDCFQLVPVDIIE
B4: RNF112 RING domain (UniProt Q9ULX5); chain QPMAPRELPTCSICLERLRDPISLDCGHDFCIRCFSTHRLPGCEPPCCPECRKICKQKRGLR
B5: RNF5 RING domain (UniProt Q99942); chain ERGGAGATFECNICLETAREAVVSVCGHLYCWPCLHQWLETRPERQECPVCKAGISREKVVP
Target sequence (chain): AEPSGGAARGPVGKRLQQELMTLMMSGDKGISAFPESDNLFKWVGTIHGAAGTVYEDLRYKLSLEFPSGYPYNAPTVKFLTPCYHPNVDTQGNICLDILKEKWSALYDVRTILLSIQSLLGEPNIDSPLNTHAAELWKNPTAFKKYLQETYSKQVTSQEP
Molecule	lacZ reporter activity
B1 (RFPL2 RING domain)	0
KIKDLNEHIVCCLCAGYFVDATTITECLHTFCKSCIVKYLQTSKYCPMCNIKIHETQPLL (PCGF1 RING domain (UniProt Q9BSM1))	0
MANWVFCNRCFQPPHRTSCFSLTNCGHVYCDACLGKGKKNECLICKAPCRTVLLSK (RNF212 RING domain (UniProt Q495C1))	0
KRQCSDVDDICSICQAEFQKPILLICQHIFCEECMTLWFNREKTCPLCRTVISDHINKW (RNFT1 RING domain (UniProt Q5M7Z0))	0
B2 (TRIM55 RING domain)	0
B3 (ANKIB1 RING domain)	0
B4 (RNF112 RING domain)	0
SYEDKSNDFVCPICFDMIEEAYMTKCGHSFCYKCIHQSLEDNNRCPKCNYVVDNIDHLY (COP1 RING domain (UniProt Q8NHY2))	0
B5 (RNF5 RING domain)	0
FLKKLEQSFMCVCCQELVYQPVTTECFHNVCKDCLQRSFKAQVFSCPACRHDLGQNYIMI (UHRF2 RING domain (UniProt Q96PU4))	0

Sample 2
Target: CCNA2, cyclin fold, Cln2 fusion (human)
Method: yeast growth competition, sequencing
Medium: yeast
Setting: strong parent motif
Reference: not given
Reading: higher = stronger binding
Starting sequence: PLK5 docking peptide (human); IFRKVGQRLLTQC
Change	normalised enrichment score
V5A	1.07
C13A	1.56
R8A	1.49
F2A	1.31
T11A	1.63
I1A	1.16
K4A	1.62

Sample 3
Target: RNA binding protein fox-1 homolog 2, RRM domain, GST-SBP tag (RBFOX2, Homo sapiens, UniProt O43251-10, residues 100-194)
Method: RNA Bind-n-Seq
Molecule type: RNA
Medium: in vitro
Tested at: 365 nM
Setting: natural RNA segment, single round, ends assumed
Reference: no-protein control
Reading: higher = stronger binding
Shared flanks, not repeated: GGGAGUUCUACAGUCCGACGAUC … UGGAAUUCUCGGGUGCCAA
Residues (chain): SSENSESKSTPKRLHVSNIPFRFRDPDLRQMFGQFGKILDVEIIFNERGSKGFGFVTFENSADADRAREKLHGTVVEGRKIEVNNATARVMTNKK
Strand	RBNS enrichment (R)
CGGCUUUGGUACUCUCUACCUCUUACCGAGCACCGCCCUUUUGACCUUGUAUAGCCAGUUUGACCAUCUGCCUUAUAGACAAACAUUGCUGUUCUUCUAUGUCGUCCUCU	0.503
UAGAAACCUCAUCUUGGGUACAAGGAAGGAUAGUUCUGUCACUUUAACUUGUUUCAAUGCCUACUUUUAAUGGAGGUUAUUAAACACUUUAACCUCCCUUCUAGCCCACC	0.25
UUUUGAAUGGGAAGUUCUCACUAAAACAAUCCUGAGAUUUCUUAAUUUCAUGGUUCUUUAAAUAUUAUAAACACAGAGUCAACAUAGAAUGAAAUUGUAUUUGUUAAAAU	0.727
AGAUCAUUGGUGACAUUCUUCAGUUAUCAUUAUACUUUGCCGAAUUCUAUCACAGCACAGCAGGUCGAGAGUUAACACCUGGAUGACAUGGUGGUGGAUAUUUGGGUCUG	0.419
UCUUACUGAAGAGGACUCUAGCUCUCCCUGCCUGCUCUGAACUUUACUUCCCAGACCAGGUGUCCGGCUGGGAACAAACCACUAAUUUGUCACUGGACUGUCUCUGGGCC	1.73
AGCAGGUAGGUCAAGAGAUGGGCCAUAUAUAUACUGAUAUACUGGUUGACCUGCCAUCACCGCUCACUGCCAUGUGAAUAGAACUGUUUAUGACUGCAAUUUCUUUUUUC	2.71
GAGCCCGACUGCCCUCGGGCACACGGCCUGCCUGUCGCAUGUUUGUGUCUGCCUCGUUCCCUCCCCUGUGCCUGUGUCUGCAGAAAAACAAGACCAGAUGUGAUUUGUUA	19.9
GUCUCUGUUGUGCUUACUGCAGGCUGUAAUGGCACUUUUGCUUGUUUCACUUGUUCCCUCUGAGGCUGAAUGCUCCAAGAGAGUGGGAACUGUGCUUCUUACUUACUGAU	2.6

Sample 4
Target: Histone acetyltransferase KAT6A, winged helix 2, GST fusion (KAT6A, Homo sapiens, UniProt Q92794, residues 85-181)
Method: protein binding microarray
Molecule type: double-stranded DNA, one strand shown
Medium: in vitro
Tested at: not given
Setting: 8-mer, flanks averaged, mean of 2 arrays, mostly near background
Reference: not given
Reading: higher = stronger binding
Construct (chain): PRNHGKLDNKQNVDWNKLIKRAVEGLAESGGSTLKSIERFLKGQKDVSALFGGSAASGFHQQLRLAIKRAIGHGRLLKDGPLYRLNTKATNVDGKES
Strand	E-score
AGCTACTC	-0.0923
AGATTAAG	-0.0514
CACTGATG	-0.0454
GCTGCGAA	0.118
GAAGTTGA	-0.123
ATAGCTTC	-0.0257
CTTGACCC	0.0153
TTATTCAA	0.244
GCTGCGCC	0.194
AATCTTAG	0.0717
CCCTAAAC	-0.163
ATCGTCCC	-0.00779
AAGAGGGC	0.0276
CCCGTGCG	0.183
ACGTTTCA	-0.0469
ATTATGTA	0.0261
GGCGGCAC	0.156
ACGAGACC	-0.159
ACCCTTGG	-0.152
AACAAGAG	-0.1
CACGCCGG	0.201
AACACAGC	0.058
ATTTCCGA	0.0635
ATGATAAC	0.15
ATCGGCAC	0.125
